Published values of several laboratories.
Parts stem from different laboratories: compare values within a part only.

Set 1
Target: Prothrombin, mature alpha-thrombin (F2, Homo sapiens, UniProt P00734)
Method: aptamer microarray, sandwich
Molecule type: DNA with 2'F-ANA
Medium: in vitro
Concentration: 200 nM
Setting: whole 15-mer aptamer, many near background
Added: Cy3 exosite-II aptamer, 400 nM
Direction: higher = stronger binding
Oligonucleotide: GGTTGGTGTGGTTGG
`2'F-ANA at 2 3 4 6 7 9 11 14 15`: “mean fluorescence intensity” 177 a.u.
Under “mean fluorescence intensity”, `2'F-ANA at 2 7 10 13` is recorded as 128 a.u.
Under “mean fluorescence intensity”, `2'F-ANA at 3 5 6 8 9 10 11 12 13 14` is recorded as 53.3 a.u.
`2'F-ANA at 3 6 7 8 10 11 14 15` — result for “mean fluorescence intensity”: 322 a.u.
`2'F-ANA at 1 2 6 10 11 14 15` — result for “mean fluorescence intensity”: 49.2 a.u.
For `2'F-ANA at 1 3 6 7 9 10 14`, “mean fluorescence intensity” read 101 a.u.

Set 2
Target: Histone acetyltransferase KAT6A, both winged helices, GST fusion (KAT6A, Homo sapiens, UniProt Q92794, residues 1-181)
Method: protein binding microarray
Molecule type: double-stranded DNA, one strand shown
Medium: in vitro
Concentration: not given
Setting: 8-mer, flanks averaged, mean of 2 arrays, mostly near background
Reference: not given
Direction: higher = stronger binding
Construct (chain): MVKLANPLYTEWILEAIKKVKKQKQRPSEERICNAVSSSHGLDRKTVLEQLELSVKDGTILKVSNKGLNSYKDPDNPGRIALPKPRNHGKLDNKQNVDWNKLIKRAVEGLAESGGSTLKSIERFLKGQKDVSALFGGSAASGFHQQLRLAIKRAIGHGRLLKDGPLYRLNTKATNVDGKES
With `ACTTAAGC` the E-score was 0.0504.
`AGTCCAGC` has an E-score of -0.0881.
With `GTTCAGAA` the E-score was -0.059.
For `CTTACGCA`, the E-score was 0.107.
For `CCTCTTTA`, the E-score was -0.208.

Set 3
Target: RNA binding protein fox-1 homolog 2, RRM domain, GST-SBP tag (RBFOX2, Homo sapiens, UniProt O43251-10, residues 100-194)
Method: RNA Bind-n-Seq
Molecule type: RNA
Medium: in vitro
Concentration: 365 nM
Setting: natural RNA segment, single round, ends assumed
Reference: no-protein control
Direction: higher = stronger binding
Constant ends, left off below: GGGAGUUCUACAGUCCGACGAUC … UGGAAUUCUCGGGUGCCAA
Target sequence (chain): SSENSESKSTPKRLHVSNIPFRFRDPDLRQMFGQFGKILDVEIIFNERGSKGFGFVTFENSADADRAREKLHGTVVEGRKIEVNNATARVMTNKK
`CUAGCCAGGCAUGAUUGCAAUGUCUACAGGCCCAGUUCAUGAGAGGCAGAGACAGGAAGACCGCCGAAAGGUCAAGGAUAGCAUGGUCUACGUAUCGAGACUCCAGCCAG` — result for “RBNS enrichment (R)”: 5.99.
`CCACUCAACUUUCAGUUGGCUCUGUGUCAGUUUUCCAUUCAGUGUUAACUACUUGUUACUGCCAUGCUGCUUGCCCUCCCUUGAAGUGUCUAUAAGCUCAUCACAGCCUA` — result for “RBNS enrichment (R)”: 0.367.
Under “RBNS enrichment (R)”, `UGUGGUUAGUUAACCGUACUGAGUUAUCCAUCUAGCAUCUGUGGCUUGCUGGAAGGGUAGUAUUAACUAUUUAACAUGUAAUGGUGUACUUCACUCUUACCUAGCACGCU` is recorded as 0.459.
For `GUACUUUUUCUGGGUUGGCAAUUUGAUGACCACUUUGGUUCAGUCAAAAUGUGUGUACUUUUGGGCCAAAAGCCAGCACUUACACACACACACAUACACAUACACACACA`, “RBNS enrichment (R)” read 0.522.
For `AAUCAAGCCUGAUUCAAAACAUCCUAGGGUGUUUUAAACACACCAUCUGGUGCCAAAUGAAGAUUUUUAGGAGUGAUUACUAAUUAUCAAGGGCACAGUUGUGGUACUGU`, “RBNS enrichment (R)” read 0.317.

Mixed results
`PhoQ, residues 284 288 289 292 302 303 SSYNSA` gave a fold induction of 17.7 (PhoP, residues 12 14 15 18 19 LHHVQ (Escherichia coli, UniProt P23836); Sort-seq, refers to: YFP reporter; E. coli; PhoQ-PhoP variant library, added: 10 µM Mg2+; reference: high Mg2+ state, higher = stronger signaling).

Repeated from above (set 1):
Under “mean fluorescence intensity”, `2'F-ANA at 3 5 6 8 9 10 11 12 13 14` is recorded as 53.3 a.u.
`2'F-ANA at 3 6 7 8 10 11 14 15` — result for “mean fluorescence intensity”: 322 a.u.
